Measured values pooled from the literature.
A part holds a random share of what one study measured.

Study 1 — method: RNA Bind-n-Seq; form: RNA; matrix: in vitro; tested at: not given; baseline: input RNA pool; reading: higher = stronger binding
Target: RING finger protein unkempt homolog, zinc fingers 1-6, GST-SBP tag (UNK, Homo sapiens, UniProt Q9C0B0, residues 30-357)
Notes: RNA with constant flanks, human-mouse chimeric sites, ends assumed
Construct (chain): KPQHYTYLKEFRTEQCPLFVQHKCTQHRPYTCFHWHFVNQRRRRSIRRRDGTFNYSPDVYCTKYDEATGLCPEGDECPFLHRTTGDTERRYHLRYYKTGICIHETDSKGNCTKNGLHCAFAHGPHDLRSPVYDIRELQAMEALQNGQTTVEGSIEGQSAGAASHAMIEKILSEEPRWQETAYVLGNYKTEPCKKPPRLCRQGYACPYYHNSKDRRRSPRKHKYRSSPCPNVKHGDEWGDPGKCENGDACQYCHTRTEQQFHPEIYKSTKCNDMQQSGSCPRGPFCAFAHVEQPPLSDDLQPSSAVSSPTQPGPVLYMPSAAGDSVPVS
Strand	bound/input enrichment [ratio]
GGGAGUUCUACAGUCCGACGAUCUGUGAACUGAAAGGUGUGAUCUAAAAACAAGAUGACUUUUCCUGGCACAUAUUUCAAAGCAAAGACUUUGUUGCCUGCUGCUUAUUGUCUAAUUUACAGGGAUAUUUAAUUUUGUCAGGUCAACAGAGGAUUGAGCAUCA	0.145
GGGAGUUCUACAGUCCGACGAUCGUGUCCUGCUUUCAACUUAAAUCACUGAGGCAUCUCUACUGUUCUGUUAAAAUCAGGACUGUAGCGCUGUGUCACCACAUGAGAGUUCAGAAGCAGCCUUUCUGUGGAGGGUGGGAAUGACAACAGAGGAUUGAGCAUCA	0.112
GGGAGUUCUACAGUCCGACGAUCGCGGCAGAAUCAUGGAGGACAUAAUGCAGCUCCCCAAAGCGCGCGUCAACGCCAGCAUGUUACCACAAUUCAUCGACCGGCCCGUGUGCUUCGUGGGGAAGCUGGAAAAGAUUCAUCCCACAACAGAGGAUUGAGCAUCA	0.133
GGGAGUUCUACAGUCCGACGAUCAAAGUGGACUAUGGCGAGUACAUGGAUAAAAACAAUGUGAGGCGGCAAGCAACAACAAUCAUAGCUGAUAAUAUUAUAUUUCUGAGUGACCAGACGAAAGAAAAGGCAUAGAACGGAUGACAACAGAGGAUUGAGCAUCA	5.68
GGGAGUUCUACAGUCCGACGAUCCGGAGCCCUCCUCUCCCCCAGGCCCGAGAUAUAACCCACCAGUGCCUUUUGUCUUCCUGUCAGCUCUGUCAAUCACGGCCCUGCCUUCACGCCCACACCAAGUGCCCAAAGUGGGGAGGGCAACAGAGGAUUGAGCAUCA	0.696
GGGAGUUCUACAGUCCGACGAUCAACAGAUUGUCUUUAAGCAUUCCAAGCGAGAAUGCUGGGGUGAUCAUUGUUGCCCAUGUGCCUUCUGUAAUAGAUGGUAAUUAAUUGCAUGUUACAUCUUUCCUUCACUCCAGAAUUGUUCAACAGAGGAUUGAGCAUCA	0.0874

Study 2 — method: aptamer microarray, sandwich; form: DNA with 2'F-ANA; matrix: in vitro; tested at: 200 nM; together with: Cy3 exosite-II aptamer, 400 nM; reading: higher = stronger binding; strand: GGTTGGTGTGGTTGG
Target: Prothrombin, mature alpha-thrombin (F2, Homo sapiens, UniProt P00734)
Notes: whole 15-mer aptamer, many near background
Modification	mean fluorescence intensity
2'F-ANA at 1 2 5 10 11 12 13 14 15	76.2 a.u.
2'F-ANA at 2 3 6 12 13 14	458 a.u.
2'F-ANA at 2 4 5 6 11 12 13	75.7 a.u.
2'F-ANA at 1 5 11 14 15	45.7 a.u.
2'F-ANA at 3 4 6 7 10 14 15	204 a.u.
2'F-ANA at 1 3 4 7 8 10 11 12 13 14	51.9 a.u.
2'F-ANA at 3 7 9 11 13 14 15	591 a.u.
2'F-ANA at 1 3 6 8 11 12	531 a.u.

Study 3 — method: protein-binding microarray; form: double-stranded DNA, one strand shown; matrix: in vitro; tested at: not given; reading: higher = stronger binding
Target: TATA-box-binding protein 1 (TBP1, Arabidopsis thaliana, UniProt P28147, residues 1-200, full length assumed)
Notes: k-mer, scored over probes, only values ≥0.25
Construct (chain): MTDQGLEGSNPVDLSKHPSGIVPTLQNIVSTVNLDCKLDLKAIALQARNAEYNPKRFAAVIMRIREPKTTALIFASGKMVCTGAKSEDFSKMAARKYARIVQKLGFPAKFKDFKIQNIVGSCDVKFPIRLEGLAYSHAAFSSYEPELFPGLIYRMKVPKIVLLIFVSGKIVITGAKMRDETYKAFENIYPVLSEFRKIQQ
Strand	E-score
TTATAAA	0.475
AAATTAC	0.306
GATTAAA	0.348
TGATAAA	0.29
AATTTAT	0.425

Further values, each from its own experiment
Substance	target	assay	test system	setting	how to read	measurement	value
PhoQ, residues 284 288 289 292 302 303 SSTMSV	PhoP, residues 12 14 15 18 19 LWHVM (Escherichia coli, UniProt P23836)	Sort-seq, refers to: YFP reporter	E. coli	PhoQ-PhoP variant library, together with: 10 µM Mg2+	baseline: high Mg2+ state, higher = stronger signaling	fold induction	13.4

Some of these lines once more (study 2):
Modification	mean fluorescence intensity
2'F-ANA at 1 2 5 10 11 12 13 14 15	76.2 a.u.
2'F-ANA at 2 3 6 12 13 14	458 a.u.
